Experimental data of several laboratories.
Each numbered part is a random draw from the data of one study; scales do not carry over between parts.

Sample 1
Target: Sal-like protein 4, full length isoform B (SALL4, Homo sapiens, UniProt Q9UJQ4-2, residues 1-616)
Method: universal PBM
Form: double-stranded DNA, one strand shown
Medium: in vitro
Concentration: not given
Notes: 8-mer, flanks averaged, mean of replicates
Direction: higher = stronger binding
Quantity: E-score
Residues (chain): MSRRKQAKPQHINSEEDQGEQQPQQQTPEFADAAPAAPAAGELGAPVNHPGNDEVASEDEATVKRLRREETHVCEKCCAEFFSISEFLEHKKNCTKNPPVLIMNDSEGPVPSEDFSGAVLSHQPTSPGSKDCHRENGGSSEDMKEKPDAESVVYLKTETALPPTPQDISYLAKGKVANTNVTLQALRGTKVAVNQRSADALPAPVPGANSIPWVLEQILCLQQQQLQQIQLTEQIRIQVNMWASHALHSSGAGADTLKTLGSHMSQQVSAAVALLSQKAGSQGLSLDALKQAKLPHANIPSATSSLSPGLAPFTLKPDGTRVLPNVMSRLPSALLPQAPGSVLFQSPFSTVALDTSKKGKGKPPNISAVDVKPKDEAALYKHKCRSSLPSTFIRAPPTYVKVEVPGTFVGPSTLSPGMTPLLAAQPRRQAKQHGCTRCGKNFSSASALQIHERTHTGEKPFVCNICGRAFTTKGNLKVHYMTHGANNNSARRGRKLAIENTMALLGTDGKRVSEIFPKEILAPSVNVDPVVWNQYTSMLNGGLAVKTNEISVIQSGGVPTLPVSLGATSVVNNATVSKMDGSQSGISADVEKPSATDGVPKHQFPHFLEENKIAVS
ATAGTTAA: 0.283
ACCACCAG: -0.139
ATCTACGC: 0.175
GCTTATCC: -0.0141
CGCGATGA: -0.0136

Sample 2
Target: Myc proto-oncogene protein, bHLH-zipper, MAX partner unstated (MYC, Homo sapiens, UniProt P01106, residues 368-449)
UniProt P01106, sequence (368-449, looked up): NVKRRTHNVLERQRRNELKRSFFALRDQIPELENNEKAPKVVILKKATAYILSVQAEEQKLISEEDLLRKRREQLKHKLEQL
Method: protein-binding microarray
Form: double-stranded DNA, one strand shown
Medium: in vitro
Concentration: not given
Notes: k-mer, scored over probes, only values ≥0.25
Direction: higher = stronger binding
Quantity: E-score
CGCGCACA: 0.334
ACACGATG: 0.379
CCCACCCC: 0.373
AGCATGTG: 0.466
GCGTGTTA: 0.414

Sample 3
Target: Probable WRKY transcription factor 11, DNA-binding domain (WRKY11, Arabidopsis thaliana, UniProt Q9SV15, residues 228-325)
Method: DNA-protein interaction ELISA
Form: double-stranded DNA, one strand shown
Medium: in vitro, bacterial lysate
Concentration: not given
Notes: whole dsDNA probe, crude lysate protein
Reference: highest signal in screen
Direction: higher = stronger binding
Quantity: relative absorbance
Residues (chain): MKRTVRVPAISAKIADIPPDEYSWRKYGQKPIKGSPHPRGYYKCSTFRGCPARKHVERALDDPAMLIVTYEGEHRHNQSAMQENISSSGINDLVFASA
AAAAAAATTCATGCTATTTAACCTTAAAAA: 19.6 % of maximum
AAAAAAGTACATGCGTAGATAATGTTAAAA: 14.4 % of maximum
AAAAAAATCACGGTTCGACCTCCAGCAAAA: 17.6 % of maximum
AAAAAATCAAAACAACGATGCCGTTAAAAA: 19.3 % of maximum
AAAAAACCAGTCTACACCGCTGTAGGAAAA: 18.4 % of maximum
AAAAAACTGTCTGTCCTATATCACTTAAAA: 17 % of maximum

Single results of other studies
PhoQ, residues 284 288 289 292 302 303 NLMGRA — fold induction (PhoP, residues 12 14 15 18 19 NQGLL (Escherichia coli, UniProt P23836); Sort-seq, measured: YFP reporter; E. coli; PhoQ-PhoP variant library, together with: 10 µM Mg2+; reference: high Mg2+ state, higher = stronger signaling): 14.1

Excerpt of the above (sample 3):
AAAAAACCAGTCTACACCGCTGTAGGAAAA: 18.4 % of maximum
AAAAAACTGTCTGTCCTATATCACTTAAAA: 17 % of maximum
